# Results gathered from unrelated publications.
# Lines come from different studies, so protocols differ. ± marks the error that the study gave.
# Cell line: MOLT-4
SMILES,test,conditions,scale,quantity,result
COc1cc(OC)cc(C(=O)c2cc3c(-c4ccccc4)c(O)ccc3o2)c1,cell proliferation,72 h,,IC50,12 ± 1 µM
CCCCN1CCN(c2ccc3[nH]c(-c4ccc5[nH]c(-c6ccc(OCC)c(OCC)c6)nc5c4)nc3c2)CC1,SRB,"10 µM, 48 h",,growth percent,-0.13%
NNc1nc(-c2ccc(Cl)cc2)c2c(NC(=O)c3ccccc3)nnc-2[nH]1,SRB,"10 µM, NCI60 single-dose screen",baseline: untreated,cell growth,107%
CCCN1CCN(c2ccc3[nH]c(-c4ccc5[nH]c(-c6ccc(OCC)c(OCC)c6)nc5c4)nc3c2)CC1,SRB,"10 µM, 48 h",,growth percent,3.28%
S=C([S][Au-][P+](CCCCCC[P+]([Au-][S]C(=S)n1cccn1)(c1ccccc1)c1ccccc1)(c1ccccc1)c1ccccc1)n1cccn1,"cell growth, NCI-60 screen",leukemia,,log10 TGI,-4.49
CCN(CC)c1ccc(C=NNC(=O)CSc2nc3ccccc3c(=O)n2Cc2ccc(S(N)(=O)=O)cc2)c(O)c1,NCI five-dose screen,,,TGI,> 100 µM
C#C[C@@]1(O)[C@@H](CO)O[C@@H](n2ccc3c(N)ncnc32)[C@@H]1O,SRB,NCI-60 screen,,TGI,> 100 µM
O=C(Nc1nnc2n3c(Cc4ccccc4)n[nH]c3nc(-c3ccc(Cl)cc3)c1-2)c1ccccc1,SRB,"10 µM, NCI60 single-dose screen",baseline: untreated,cell growth,107%
COc1ccc(C(=O)c2cc3c(-c4ccccc4)c(OC)ccc3o2)cc1,cell proliferation,72 h,,IC50,1.4 ± 0.31 µM
CCCCN1CCN(c2ccc3[nH]c(-c4ccc5[nH]c(-c6cc(OC)c(OC)c(OC)c6)nc5c4)nc3c2)CC1,SRB,"10 µM, 48 h",,growth percent,47%
COc1ccccc1C(=O)c1cc2c(-c3ccccc3)c(O)ccc2o1,cell proliferation,72 h,,IC50,13 ± 1 µM
CCOC(=O)CSc1nc(-c2ccc(Cl)cc2)c2c(NC(=O)c3ccccc3)nnc-2[nH]1,SRB,"10 µM, NCI60 single-dose screen",baseline: untreated,cell growth,99.5%
O=C1NC(c2ccccc2)(c2ccccc2)C(=O)N1Cc1cn(-c2cc3ccccc3oc2=O)nn1,NCI60 single-dose screen,10 µM,,growth percentage,90.6%
CCCCN1CCN(c2ccc3nc(-c4ccc5nc(-c6cc(OC)ccc6OC)[nH]c5c4)[nH]c3c2)CC1,SRB,"10 µM, 48 h",,growth percent,82.7%
COc1cccc(C(=O)c2cc3c(-c4ccccc4)c(OC)ccc3o2)c1,cell proliferation,72 h,,IC50,4.8 ± 1.1 µM
COc1cnc2cccc(N3CCc4c(cc(Cn5ccnc5C)cc4-c4cn(C)nc4C(F)(F)F)C3=O)c2c1,"cell growth, inhibitor",120 h,,EC50,31.4 µM
Cc1cc(=O)[nH]c(=O)n1Cc1cn(-c2cc3ccccc3oc2=O)nn1,NCI60 single-dose screen,10 µM,,growth percentage,109%

# For quick reference, copied from above:
SMILES,test,conditions,scale,quantity,result
S=C([S][Au-][P+](CCCCCC[P+]([Au-][S]C(=S)n1cccn1)(c1ccccc1)c1ccccc1)(c1ccccc1)c1ccccc1)n1cccn1,"cell growth, NCI-60 screen",leukemia,,log10 TGI,-4.49
